Published values collected from several papers.
Lines come from different studies, so protocols differ.
ALK C1156Y: ALK tyrosine kinase receptor (ALK, Homo sapiens, UniProt Q9UM73, C1156Y)
ALK: ALK tyrosine kinase receptor (ALK, Homo sapiens, UniProt Q9UM73)

Structure (SMILES) | target | test | setting | scale | remaining binding [%]
CNC1C[S+]2CC[S+]3CC[S+](C1)[Ru-4]321([N]=C=S)[n]2c3ccc(OC)cc3c3c4c(c5cc(F)c[n+]1c5c32)C(=O)NC4=O (centres unmarked) | ALK C1156Y | KinomeScan | 0.1 µM | baseline: untreated | 83
Cc1cnc2nc1Nc1cccc(c1)COC/C=C/COCc1cc(ccc1OCCN1CCOCC1)N2 | ALK | binding | 0.1 µM |  | 74
CC(C)=CC1OC(C)(C)C2C=C3C(=O)C(Cl)=CC(O)C3C3C(O)C4OC4C(=O)C132 (centres unmarked) | ALK | cell-free assay, competition with immobilised ligand | 10 µM |  | 79
Nc1ncc2c(n1)-c1c([nH]c3ccc(C4=CCOCC4)cc13)CCC2 | ALK C1156Y | binding, competition with immobilised ligand | 1 µM |  | 100
CNS(=O)(=O)Nc1nccc(Cc2c(C)c3ccc(Oc4ncccc4F)cc3oc2=O)c1F | ALK | cell-free assay, competition with immobilised ligand | 10 µM |  | 98
CNC(=O)C1CCN(c2cc(C)c(F)cc2NC(=O)c2ccc(-c3cc(O)ccc3C)c(C)c2)CC1 | ALK C1156Y | binding, competition with immobilised ligand | 1 µM |  | 100
Cc1ccc(-c2c(/C=C(\C#N)C(=O)NC(C)C)n(CCCO)c3ncnc(N)c23)cc1 | ALK | cell-free assay, competition with immobilised ligand | 1 µM |  | 53
CN1CCN(Cc2ccc(NC(=O)c3cccc(C#Cc4cnc(N)c5ncccc45)c3)cc2C(F)(F)F)CC1 | ALK | cell-free assay, competition with immobilised ligand | 0.5 µM |  | 60
COc1c(Cl)cccc1Nc1c(-c2ccncc2C#C[C@@]2(C)CCCN2C(=O)/C=C/CN(C)C)[nH]c2c1C(=O)NCC2 | ALK C1156Y | cell-free assay, competition with immobilised ligand | 3 µM |  | 78
C=CC(=O)N1CCc2ccc(-n3c(=O)ccc4cnc5ccc(-c6cnn(C)c6)cc5c43)cc21 | ALK C1156Y | KINOMEscan | 1 µM | baseline: DMSO control | 100
C=CC(=O)N1CCCC(n2c(=O)c3ncccc3n(Cc3ccc(Oc4ccccc4)cc3)c2=O)C1 (centres unmarked) | ALK (Homo sapiens, UniProt Q9UM73, L1196M) | cell-free assay, competition with immobilised ligand | 1 µM |  | 100
